Assay results pooled from the literature.
Each line is one published result; not all experiments were run side by side. ± marks the error that the study gave.
GSTO1: Glutathione S-transferase omega-1 (GSTO1, Homo sapiens, UniProt P78417)
Sequence of UniProt P78417 (whole entry, looked up): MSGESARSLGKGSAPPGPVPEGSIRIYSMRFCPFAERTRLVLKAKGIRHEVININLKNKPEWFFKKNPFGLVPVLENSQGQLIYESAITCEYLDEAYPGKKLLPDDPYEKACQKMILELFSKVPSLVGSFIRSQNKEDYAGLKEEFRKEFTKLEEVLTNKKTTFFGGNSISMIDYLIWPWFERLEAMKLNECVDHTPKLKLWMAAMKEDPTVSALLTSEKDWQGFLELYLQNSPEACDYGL
Succinate dehydrogenase complex: Succinate dehydrogenase complex (Sus scrofa, UniProt A5GZW8+D0VWV4+Q007T0+Q0QF01)
Sequence of UniProt A5GZW8 (whole entry, looked up): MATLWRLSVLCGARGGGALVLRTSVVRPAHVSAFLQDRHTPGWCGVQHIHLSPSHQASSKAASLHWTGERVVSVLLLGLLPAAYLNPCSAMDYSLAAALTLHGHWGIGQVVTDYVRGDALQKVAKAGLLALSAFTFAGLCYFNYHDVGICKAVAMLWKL
Sequence of UniProt D0VWV4 (whole entry, looked up): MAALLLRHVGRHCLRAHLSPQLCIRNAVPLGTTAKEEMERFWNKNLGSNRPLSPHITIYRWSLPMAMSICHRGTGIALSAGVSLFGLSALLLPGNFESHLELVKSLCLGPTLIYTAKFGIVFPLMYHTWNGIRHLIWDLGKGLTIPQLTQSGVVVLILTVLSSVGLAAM
Sequence of UniProt Q0QF01 (whole entry, looked up): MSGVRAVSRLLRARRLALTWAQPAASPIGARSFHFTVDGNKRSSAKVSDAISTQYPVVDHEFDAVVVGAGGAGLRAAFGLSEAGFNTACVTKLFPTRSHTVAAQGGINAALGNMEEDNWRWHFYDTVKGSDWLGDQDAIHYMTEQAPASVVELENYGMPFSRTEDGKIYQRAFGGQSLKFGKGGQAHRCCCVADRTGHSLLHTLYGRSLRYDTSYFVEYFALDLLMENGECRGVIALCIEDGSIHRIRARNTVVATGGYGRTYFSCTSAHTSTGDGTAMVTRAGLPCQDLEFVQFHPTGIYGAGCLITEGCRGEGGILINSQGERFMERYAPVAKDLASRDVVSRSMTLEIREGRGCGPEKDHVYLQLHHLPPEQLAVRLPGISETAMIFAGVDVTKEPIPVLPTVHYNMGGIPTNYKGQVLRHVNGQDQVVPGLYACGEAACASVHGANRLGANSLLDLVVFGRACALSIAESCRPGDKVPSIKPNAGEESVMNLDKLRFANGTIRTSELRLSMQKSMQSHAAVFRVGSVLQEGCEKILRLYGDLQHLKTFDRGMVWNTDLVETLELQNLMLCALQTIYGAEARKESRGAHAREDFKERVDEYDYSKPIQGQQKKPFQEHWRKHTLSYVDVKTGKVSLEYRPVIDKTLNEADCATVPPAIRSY
Sequence of UniProt Q007T0 (whole entry, looked up): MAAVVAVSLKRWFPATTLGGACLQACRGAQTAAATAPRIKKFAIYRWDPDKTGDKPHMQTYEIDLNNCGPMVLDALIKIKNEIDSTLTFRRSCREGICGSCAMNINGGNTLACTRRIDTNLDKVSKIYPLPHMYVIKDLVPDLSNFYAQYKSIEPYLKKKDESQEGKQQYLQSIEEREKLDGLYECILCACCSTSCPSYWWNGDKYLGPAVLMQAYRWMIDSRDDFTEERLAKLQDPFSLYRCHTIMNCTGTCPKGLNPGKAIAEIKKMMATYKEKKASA
AGER: Advanced glycosylation end product-specific receptor (AGER, Homo sapiens, UniProt Q15109)
Sequence of UniProt Q15109 (whole entry, looked up): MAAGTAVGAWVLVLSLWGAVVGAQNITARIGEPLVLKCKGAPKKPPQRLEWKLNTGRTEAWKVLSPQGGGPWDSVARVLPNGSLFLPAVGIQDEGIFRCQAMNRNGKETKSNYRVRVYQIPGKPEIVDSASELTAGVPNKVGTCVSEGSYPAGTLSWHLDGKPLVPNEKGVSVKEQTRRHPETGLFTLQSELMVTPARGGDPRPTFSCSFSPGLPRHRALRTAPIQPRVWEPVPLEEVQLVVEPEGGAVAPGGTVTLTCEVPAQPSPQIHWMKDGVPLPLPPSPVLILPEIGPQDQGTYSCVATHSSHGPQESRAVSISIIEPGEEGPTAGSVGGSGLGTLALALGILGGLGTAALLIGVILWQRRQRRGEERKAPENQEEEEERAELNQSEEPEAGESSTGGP
GLO1: Lactoylglutathione lyase (GLO1, Homo sapiens, UniProt Q04760)
Sequence of UniProt Q04760 (whole entry, looked up): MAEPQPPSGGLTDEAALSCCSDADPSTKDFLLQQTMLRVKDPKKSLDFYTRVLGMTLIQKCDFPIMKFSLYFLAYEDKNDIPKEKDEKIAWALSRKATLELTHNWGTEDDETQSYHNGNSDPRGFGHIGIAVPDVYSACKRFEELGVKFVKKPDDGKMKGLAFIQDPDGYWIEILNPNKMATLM
Sequence of UniProt O60218 (whole entry, unmodified, looked up): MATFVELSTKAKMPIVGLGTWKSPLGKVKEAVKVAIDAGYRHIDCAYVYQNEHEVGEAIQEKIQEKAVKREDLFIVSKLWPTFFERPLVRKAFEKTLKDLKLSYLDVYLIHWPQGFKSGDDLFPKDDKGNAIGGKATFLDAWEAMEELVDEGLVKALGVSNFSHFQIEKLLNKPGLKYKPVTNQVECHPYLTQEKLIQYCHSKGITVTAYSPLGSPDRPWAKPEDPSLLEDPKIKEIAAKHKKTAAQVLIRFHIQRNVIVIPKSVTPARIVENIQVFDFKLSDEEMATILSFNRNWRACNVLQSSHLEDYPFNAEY
Sequence of UniProt P21397 (whole entry, looked up): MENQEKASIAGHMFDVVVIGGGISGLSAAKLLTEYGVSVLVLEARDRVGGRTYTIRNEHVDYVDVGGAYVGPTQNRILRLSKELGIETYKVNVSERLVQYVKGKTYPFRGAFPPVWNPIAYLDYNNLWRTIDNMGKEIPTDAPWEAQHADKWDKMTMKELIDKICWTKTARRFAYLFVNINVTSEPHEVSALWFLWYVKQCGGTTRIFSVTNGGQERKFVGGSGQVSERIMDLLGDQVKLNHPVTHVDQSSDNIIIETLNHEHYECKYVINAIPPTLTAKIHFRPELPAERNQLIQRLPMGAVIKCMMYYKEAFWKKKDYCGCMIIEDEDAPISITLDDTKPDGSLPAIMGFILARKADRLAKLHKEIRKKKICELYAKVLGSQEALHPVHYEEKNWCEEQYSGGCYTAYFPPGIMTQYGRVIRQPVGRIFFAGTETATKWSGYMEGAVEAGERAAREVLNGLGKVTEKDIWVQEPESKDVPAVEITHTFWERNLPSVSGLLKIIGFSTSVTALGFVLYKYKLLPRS
Sequence of UniProt Q05097 (whole entry, looked up): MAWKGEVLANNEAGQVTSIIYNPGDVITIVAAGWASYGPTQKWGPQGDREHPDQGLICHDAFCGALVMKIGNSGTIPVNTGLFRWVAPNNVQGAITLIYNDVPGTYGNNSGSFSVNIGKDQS
Sequence of UniProt P51451 (whole entry, looked up): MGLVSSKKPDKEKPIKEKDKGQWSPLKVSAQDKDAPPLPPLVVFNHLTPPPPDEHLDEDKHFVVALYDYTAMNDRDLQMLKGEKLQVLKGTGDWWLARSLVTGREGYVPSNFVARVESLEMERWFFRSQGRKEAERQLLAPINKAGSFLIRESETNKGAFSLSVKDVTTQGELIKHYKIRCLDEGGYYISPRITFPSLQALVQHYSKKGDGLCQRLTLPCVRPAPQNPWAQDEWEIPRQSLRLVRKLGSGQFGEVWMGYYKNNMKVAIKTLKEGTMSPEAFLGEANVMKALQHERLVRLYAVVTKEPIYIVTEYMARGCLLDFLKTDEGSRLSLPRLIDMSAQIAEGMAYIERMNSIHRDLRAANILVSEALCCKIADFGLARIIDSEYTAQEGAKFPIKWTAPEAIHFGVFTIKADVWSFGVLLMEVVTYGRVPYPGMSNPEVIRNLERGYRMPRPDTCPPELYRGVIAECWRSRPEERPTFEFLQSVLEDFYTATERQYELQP

Compound = O=C(NC1CCCCC1)C(c1ccccn1)N(C(=O)CCl)c1cccc(Cl)c1 (racemic); target = GSTO1; assay = competitive ABPP; system = MDA-MB-435; setting = 1 µM, 12 h, 10% serum; inhibition = 85%
Compound = O=C(Nc1ccccc1Nc1ccccc1)c1cccnc1Br; target = Succinate dehydrogenase complex; assay = enzyme activity, double-antibody sandwich ELISA; setting = 1 µM; inhibition = 25.4%
Compound = O=C(O[C@@H]1Cc2c(O)cc(O)cc2O[C@@H]1c1ccc(O)c(O)c1)c1cc(O)c(O)c(O)c1; target = maltase, rat; assay = enzyme activity, inhibitor; system = rat intestinal brush border vesicles; setting = 10 µM; inhibition = 84.7%
Compound = CC(C)(C)NC(=O)[C@@H]1C[C@@H]2CCCC[C@@H]2CN1C[C@@H](OC(=O)CCC(=O)OC[C@H](O)[C@H]1OC(=O)C(O)=C1O)[C@H](Cc1ccccc1)NC(=O)[C@H](CC(N)=O)NC(=O)c1ccc2ccccc2n1; target = Sodium-dependent vitamin C transporter (Canis lupus familiaris, UniProt A8CX01); assay = ascorbic acid uptake; system = MDCK-MDR1; setting = 200 µM, added: [14C]ascorbic acid 23.5 µM; inhibition = 51%
Compound = Cc1ccc(NC(=O)c2cc3ccc(Cl)cc3s2)cc1; target = AGER; assay = binding to AGE-BSA, competitive ELISA; setting = 100 µM, 60 min; inhibition = 9%
Compound = O=C(CCl)N(CCNC(=O)C(F)(F)F)c1ccc([N+](=O)[O-])cc1; target = GSTO1; assay = competitive ABPP; system = MDA-MB-435; setting = 1 µM, 12 h, 10% serum; inhibition = 65%
Compound = Cn1cnnc1Sc1c2c(c(C#N)c3nc4ccccc4n13)CCCC2; target = MAOA (Homo sapiens, UniProt P21397); assay = enzyme activity, inhibitor; setting = 100 µM; inhibition = no inhibition
Compound = O=C(NC1CCCCC1)C(c1cncs1)N(C(=O)CCl)c1ccc(F)cc1 (racemic); target = GSTO1; assay = probe labelling, gel-based competitive ABPP; system = MDA-MB-435 soluble proteome; setting = 100 nM, added: SE-Rh probe; inhibition = 50%
Compound = NS(=O)(=O)c1ccc(/N=N/c2ccc(O)cc2)cc1; target = GLO1; assay = enzyme activity, inhibitor; setting = 25 µM; inhibition = 94.2%
Compound = CC(=O)c1ccc(O)c(O)c1; target = lecA (Pseudomonas aeruginosa, UniProt Q05097); assay = binding inhibitor, fluorescence polarization; setting = 4000 µM, 4 mM catechol, added: Cy5 galactoside tracer; inhibition = 11 ± 3%
Compound = O=C(Nc1ccccc1)Oc1ccc2c(c1)CCCN2C(=O)CCl; target = AKR1B10 (Homo sapiens, UniProt O60218, C299A); assay = reductase activity, NADPH absorbance; system = HEK-293T lysate; setting = 0.5 to 50 µM, 1 h; inhibition = no inhibition
Compound = NS(=O)(=O)c1ccc(/N=N/c2cc(C(=O)O)c(O)c3ccccc23)cc1; target = GLO1; assay = enzyme activity, inhibitor; setting = 25 µM; inhibition = 77.5%
Compound = FC(F)(F)c1n[nH]cc1-c1nc2ccc3[nH]ncc3c2c2c1CC2; target = FLT3 (Homo sapiens, UniProt P36888, ITD); assay = enzyme activity, inhibitor, ADP detection; setting = 0.1 µM; inhibition = 21%
Compound = O=C(c1cc2ccc(Cl)cc2s1)N(c1ccc(F)cc1)c1ccc(F)cc1; target = AGER; assay = binding to AGE-BSA, competitive ELISA; setting = 100 µM, 60 min; inhibition = 0%
Compound = CN(C1COC1)C(C)(C)/C=C(\C#N)C(=O)N1CCC[C@H]1Cn1nc(-c2ccc(Oc3ccccc3)cc2F)c2c(N)ncnc21; target = BLK (Homo sapiens, UniProt P51451); setting = 1 µM, mean; inhibition = > 90%
Compound = COc1ccc(/C=C/C(=O)N2CCN(c3ccccc3)CC2)cc1; target = Agaricus bisporus tyrosinase; assay = monophenolase activity; setting = 500 µM, added: L-tyrosine substrate; inhibition = 29.6 ± 1.7%
Compound = O=C(Nc1ccccc1Nc1ccccc1)c1cccnc1F; target = Succinate dehydrogenase complex; assay = enzyme activity, double-antibody sandwich ELISA; setting = 0.5 µM; inhibition = 5.05%
Compound = COC(=O)CCSc1nc2n(n1)C(c1cccc(OC)c1)C(C(=O)Nc1cncc(C)c1)=C(C)N2 (stereo not shown); target = MTOR (Homo sapiens, UniProt P42345); assay = enzyme activity, inhibitor, TR-FRET; setting = 1 µM; inhibition = 94.3%
Compound = O=C(Nc1cc(Cl)ccc1O)c1nn2c(C(F)(F)F)cc(-c3cc(Br)cs3)nc2c1Br; target = Hepatitis A virus cellular receptor 2, part CEACAM1 interaction (Homo sapiens, UniProt Q8TDQ0); assay = CEACAM1 binding, competitive ELISA; setting = 2.5 µM; inhibition = inhibited

For quick reference, copied from above:
Compound = COc1ccc(/C=C/C(=O)N2CCN(c3ccccc3)CC2)cc1; target = Agaricus bisporus tyrosinase; assay = monophenolase activity; setting = 500 µM, added: L-tyrosine substrate; inhibition = 29.6 ± 1.7%
